# Experimental data collected from several papers.
# Each line is one published result; not all experiments were run side by side. Several values in a cell are separate wells, animals, samples, runs or records. ± marks the error that the study gave.
Compound,tested on,assay,system,conditions,how to read,measurement,value
CC(C)c1ccc(N(C)c2ccc3c(c2)OCC[C@H]3CNc2cnccc2C(=O)O)cc1,MDA-MB-175-VII,"cell viability, CellTiter-Glo",,7 days,,IC50,≥ 10000 nM
Cc1cccc2c1N(C(=O)n1ccnn1)CC2,Arabidopsis thaliana,,kai2 mutant,3 µM,,germination rate,22.6%
CN1CCCNC(=O)c2cccc(c2)C(=O)NCCCN(C)CCCNc2cccc3c2C(=O)c2cccc(c2C3=O)NCCC1,SAS,"RNA-Seq, refers to: ZNF281 mRNA",,"1 µM, 6 h",relative to: untreated cells,log2 fold change,-0.643
COc1cc2c(NC3CCN(C(C)C)CC3)cc(N3CCOCC3)nc2cc1OCCCN1CCCC1,,"TMT proteomics, refers to: MFGE8","5xFAD mouse, hippocampus",dose not given,relative to: untreated 5xFAD,log2 fold change,-0.113
Cc1ccc(Nc2nc(NCc3ccco3)c3ccccc3n2)cc1,Trypanosoma cruzi,"reporter mRNA translation, inhibitor, refers to: capped polyadenylated Renilla luciferase mRNA",cell-free extract,concentration not given,relative to: control RNA,relative translation,82.7%
Nc1ncc(-c2cc(-c3cnn(CC(F)(F)F)c3)ncc2F)nc1C(=O)NC1CNCC(F)C1 (stereo not drawn),MAP3K1,KINOMEscan,,1 µM,relative to: DMSO control,remaining binding,100%
CC1=C[C@@H](O/C=C2/C(=O)O[C@H]3c4ccccc4C[C@@H]23)OC1=O,Arabidopsis thaliana,,htl-3 mutant,,,maximum germination,10%
CC(=O)[O-].O.O.O.O.[Mn+2].[O-]c1ccc(Br)cc1C=NCCN1CCOCC1,,DPPH radical scavenging,,120 µM,,inhibition,24.8%
C=CC(=O)N1[C@H](c2ccc3c(c2)OCO3)c2[nH]c3ccccc3c2C[C@@H]1C(=O)N1CCN(C)CC1,human cyclin E1 N112C-3xFLAG:CDK2,"co-IP with TMT proteomics, refers to: HNRNPU",,"concentration not given, Q00839",relative to: wild type DMSO,relative co-enrichment,132%
O=C(C1=C[C@H](C2CCCCC2)C[C@H](OCc2ccc(CO)cc2)O1)N1CCN(Cc2ccc3c(c2)OCO3)CC1,Trypanosoma cruzi,"reporter mRNA translation, inhibitor, refers to: capped polyadenylated Renilla luciferase mRNA",cell-free extract,concentration not given,relative to: control RNA,relative translation,101%
C1=[N+]2CCCC[N+]3=Cc4ccc5[n]4[Au-]23[n]2c1ccc2-c1nc2ccccc2nc1-5.F[P-](F)(F)(F)(F)F,human ACTN3 291-bp linear dsDNA,high-resolution melt,,416 nM,,melting temperature,83.5 °C
Cc1ncsc1-c1ccc(C(C)NC(=O)C2CC(O)CN2C(=O)C(NC(=O)CCCCCCCCCCN2CCCC(Nc3ncc(Cl)c(Nc4ccccc4S(=O)(=O)C(C)C)n3)C2)C(C)(C)C)cc1 (stereo not drawn),22Rv1,"RNA-seq, refers to: NOTCH1 mRNA",,concentration not given,relative to: DMSO,log2 fold change,-1.03
COC1CN([C@H]2CC[C@H]([C@@]3(C)Oc4c(Cl)cc(C(=O)NCc5c(SC)cc(C)[nH]c5=O)c(C)c4O3)CC2)C1,,"RNA-seq, refers to: XKR6 mouse homolog","mouse, HT-1376 xenograft, whole blood",dose not given,relative to: vehicle,log2 fold change,1.32
CNS(=O)(=O)Nc1nccc(Cc2c(C)c3ccc(Oc4ncccc4F)cc3oc2=O)c1F,MM1.S,cell viability,,7 days,,IC50,> 1000 nM
CCN(CC)CC(=O)Nc1cccc(-n2cc(-c3ccc4ccc(-c5cn(-c6cccc(NC(=O)CN(CC)CC)c6)nn5)cc4c3)nn2)c1,RCC4,"PCR angiogenesis array, refers to: IL1B",,"5 x IC50, 4 h, normoxia",relative to: untreated,fold regulation,-1.71
C=C(NC(=O)c1csc(-c2nc3c(cc2O)-c2nc(cs2)C(=O)NC(C(C)O)C(=O)NC(=C(C)OC)c2nc(cs2)C(=O)NC2c4nc(cs4)C(=O)NC(COC(=O)c4c5c6c(cccc6n4O)COC(=O)C(OC4CC(C)(O)C(N(C)C)C(C)O4)C2OC5)c2nc-3cs2)n1)C(N)=O (stereo not drawn),Streptococcus pneumoniae,,"-4, immunocompromised mice, lung infection",bid dosing,,lung bacterial load at ED50,5.25 log CFU/g
COc1ccc(CNc2nc([C@H]3CC[C@H](C(=O)O)CC3)nc3sc4ccccc4c23)cc1Cl,Cryptosporidium parvum,egress and reinvasion,HCT-8,"2 x EC90, 19.5 h, compound added 6 h postinfection",relative to: vacuoles at 6 h,parasite vacuole ratio,1.14 and 1.04 and 1.05
Cn1ncc2cc(-c3cncc(Cl)c3N3CCC4(CCNC4=O)CC3)ccc21,LS174T,"gene expression, microarray, refers to: PTGS2 mRNA",,"concentration not given, 24 h",relative to: untreated cells,log2 fold change,-2.89
c1ccc(-c2n[nH]cc2-c2ccnc3ccccc23)nc1,YPK1 (Candida albicans),"kinase binding, MIB/MS competition",Candida albicans lysate,10 µM,relative to: DMSO,log2 fold change,-0.14
O=c1[nH]cc(C(c2ccccc2Br)c2c[nH]c(=O)[nH]c2=O)c(=O)[nH]1,HIV-1 subtype C,"p24 antigen production, p24 ELISA",,7.8 µg/mL,,inhibition,< 25%
CCOc1cncc(-c2ccc(NC(=O)C3(c4ccnc(NS(=O)(=O)C5CC5)n4)CCOCC3)nc2)n1,lung cancer,"cell viability, CellTiter-Glo",DMSO 0.1%,"72 h, line code 2184",,IC50,8 nM
O=c1[nH]cc(C(c2cccc(Cl)c2)c2c[nH]c(=O)[nH]c2=O)c(=O)[nH]1,HIV-1 subtype C,"p24 antigen production, p24 ELISA",,62.5 µg/mL,,inhibition,50%
C=CC(=O)Nc1cccc(Cn2ncc3cnc(Nc4cnn(CCOC)c4)nc32)c1,MEK4 human,"binding, KINOMEscan",,100 nM,lower = stronger binding,percent of control,100%
COc1cc(O)ccc1CCC(c1ccc(O)cc1)c1cc2c(c(C)c1O)OC(c1ccc(O)cc1)CC2 (mixture of isomers),,refers to: 14-HDHA,human whole blood,"3 µM, with: Escherichia coli",,amount,9080 ± 3100 pg/mL blood

# Repeated from above:
Compound,tested on,assay,system,conditions,how to read,measurement,value
Cc1ccc(Nc2nc(NCc3ccco3)c3ccccc3n2)cc1,Trypanosoma cruzi,"reporter mRNA translation, inhibitor, refers to: capped polyadenylated Renilla luciferase mRNA",cell-free extract,concentration not given,relative to: control RNA,relative translation,82.7%
Nc1ncc(-c2cc(-c3cnn(CC(F)(F)F)c3)ncc2F)nc1C(=O)NC1CNCC(F)C1 (stereo not drawn),MAP3K1,KINOMEscan,,1 µM,relative to: DMSO control,remaining binding,100%
